# Experimental data from different studies.
# Each numbered part is a random draw from the data of one study; scales do not carry over between parts.

# Block 1
# Target: Phosphate system positive regulatory protein PHO4, full length, GST-tagged (PHO4, Saccharomyces cerevisiae, UniProt P07270, residues 1-312)
# Technique: competition protein-binding microarray
# Form: double-stranded DNA, one strand shown
# Sample: in vitro
# Tested at: 2 µM
# Setting: whole 60-bp probe, lowest competitor level
# Added: Cbf1 competitor, 0.05 µM
# Direction: higher = stronger binding
# Constant ends, left off below: … GTCTTGATTCGCTTGACGCTGCTG
# Construct (chain): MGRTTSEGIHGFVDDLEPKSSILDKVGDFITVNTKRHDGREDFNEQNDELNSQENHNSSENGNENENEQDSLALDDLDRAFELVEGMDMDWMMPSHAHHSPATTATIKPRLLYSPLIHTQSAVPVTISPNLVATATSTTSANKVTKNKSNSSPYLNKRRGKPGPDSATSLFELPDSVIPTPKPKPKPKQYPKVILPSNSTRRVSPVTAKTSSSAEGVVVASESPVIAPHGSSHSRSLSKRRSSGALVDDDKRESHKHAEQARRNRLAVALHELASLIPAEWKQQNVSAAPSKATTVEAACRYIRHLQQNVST
Oligonucleotide,fluorescence intensity [a.u.]
CGTCCTAGTGATTGTCCGGTGGGTGCCATGAGGAAG,6300
AAATTACTAAGTTGTCACCATACTTACCCCGTATGA,4160
GCCACATCCTTTACCCACGTGCTTTTTTAGCCAGAC,19200
CTTTCCCGATCTTGTCACTCAACTTTAGCACATTTG,3940
ACAACGGGGAACCGCACCGTGATGGCACCTAGCCCA,5250

# Block 2
# Target: Histone acetyltransferase KAT6A, winged helix 2, GST fusion (KAT6A, Homo sapiens, UniProt Q92794, residues 85-181)
# Technique: protein binding microarray
# Form: double-stranded DNA, one strand shown
# Sample: in vitro
# Tested at: not given
# Setting: 8-mer, flanks averaged, mean of 2 arrays, mostly near background
# Relative to: not given
# Direction: higher = stronger binding
# Residues (chain): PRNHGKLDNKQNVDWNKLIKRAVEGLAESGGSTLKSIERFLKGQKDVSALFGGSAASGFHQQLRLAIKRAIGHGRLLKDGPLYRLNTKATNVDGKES
Oligonucleotide,E-score
CATTTAGC,-0.0101
ATCGTCAA,-0.0158
CAGGCATA,-0.0334
CAACGTCA,-0.134
ACTTGCAG,-0.0947
AGAGGTGA,-0.0271
ACCTAAGC,-0.183

# Block 3
# Target: Sal-like protein 4, full length isoform A (SALL4, Homo sapiens, UniProt Q9UJQ4, residues 1-1053)
# UniProt Q9UJQ4, sequence (whole entry, looked up): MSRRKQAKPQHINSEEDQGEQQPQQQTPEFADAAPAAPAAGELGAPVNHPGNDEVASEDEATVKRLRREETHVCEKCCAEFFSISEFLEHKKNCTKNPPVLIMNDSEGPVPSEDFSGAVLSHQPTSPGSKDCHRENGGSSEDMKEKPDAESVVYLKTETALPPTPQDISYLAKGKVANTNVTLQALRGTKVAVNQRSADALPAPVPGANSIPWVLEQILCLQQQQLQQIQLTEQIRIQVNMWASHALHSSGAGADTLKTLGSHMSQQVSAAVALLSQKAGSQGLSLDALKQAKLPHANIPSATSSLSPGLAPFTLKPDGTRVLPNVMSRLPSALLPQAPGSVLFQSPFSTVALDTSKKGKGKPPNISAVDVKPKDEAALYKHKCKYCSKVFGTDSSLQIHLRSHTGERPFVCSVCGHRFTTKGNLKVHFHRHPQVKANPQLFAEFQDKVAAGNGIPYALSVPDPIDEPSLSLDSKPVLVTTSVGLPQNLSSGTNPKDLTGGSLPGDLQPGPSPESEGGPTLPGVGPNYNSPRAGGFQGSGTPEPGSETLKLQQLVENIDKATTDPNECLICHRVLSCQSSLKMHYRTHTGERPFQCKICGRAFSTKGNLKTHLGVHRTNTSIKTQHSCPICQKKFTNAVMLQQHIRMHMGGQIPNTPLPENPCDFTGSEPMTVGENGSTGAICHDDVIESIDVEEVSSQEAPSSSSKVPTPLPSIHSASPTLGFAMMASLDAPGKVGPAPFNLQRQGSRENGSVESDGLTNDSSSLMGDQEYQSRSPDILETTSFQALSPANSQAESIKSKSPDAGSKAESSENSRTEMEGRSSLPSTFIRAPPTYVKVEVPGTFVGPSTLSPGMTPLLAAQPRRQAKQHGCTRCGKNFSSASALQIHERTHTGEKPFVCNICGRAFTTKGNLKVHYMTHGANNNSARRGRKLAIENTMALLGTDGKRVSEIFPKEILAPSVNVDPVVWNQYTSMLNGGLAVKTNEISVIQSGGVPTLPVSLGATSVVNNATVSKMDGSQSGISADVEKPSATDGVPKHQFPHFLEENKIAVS
# Technique: universal PBM
# Form: double-stranded DNA, one strand shown
# Sample: in vitro
# Tested at: 600 nM
# Setting: 8-mer, flanks averaged, mean of replicates
# Direction: higher = stronger binding
Oligonucleotide,E-score
CCGTCCCA,-0.247
GTAATCTA,0.276
GACGTCTC,-0.118
AGACACTA,0.088
AGTCGTGG,-0.104
TCAGCACA,0.0677

# Single results of other studies
Substance,target,assay,test system,setting,how to read,quantity,value
"PhoQ, residues 284 288 289 292 302 303 NLALSC","PhoP, residues 12 14 15 18 19 LFHKL (Escherichia coli, UniProt P23836)","Sort-seq, refers to: YFP reporter",E. coli,"PhoQ-PhoP variant library, added: 10 µM Mg2+","relative to: high Mg2+ state, higher = stronger signaling",fold induction,2.3
